Results collected from several papers.
Compare with care: the assays were run in different laboratories. “And” joins repeats or separate records; there may be more than shown. ± marks the error that the study gave.

Compound | tested on | assay | system | setting | how to read | measurement | result
CC[C@H](C)[C@H](NC(=O)[C@H](CCCCN)NC(=O)CNC(=O)[C@H](CC(C)C)NC(=O)[C@H](Cc1ccccc1)NC(=O)[C@H](CCCCN)NC(=O)[C@H](CO)NC(=O)[C@H](Cc1ccccc1)NC(=O)[C@H](Cc1c[nH]c2ccccc12)NC(=O)[C@H](CCC(N)=O)NC(=O)[C@@H](NC(=O)[C@H](Cc1ccccc1)NC(=O)CCCCCNC(=O)CN1CCN(CC(=O)O)CCN(CC(=O)O)CCN(CC(=O)O)CC1)C(C)C)C(=O)N[C@@H](CCC(=O)O)C(=O)N1CCC[C@H]1C(=O)N[C@@H](CC(=O)O)C(=O)N[C@H](C(=O)N[C@@H](CO)C(=O)N[C@@H](CCC(N)=O)C(=O)N[C@H](C(=O)N[C@@H](CCC(N)=O)C(=O)N[C@@H](CC(=O)O)C(=O)N1CCC[C@H]1C(=O)N[C@@H](CC(N)=O)C(=O)N[C@@H](CC(=O)O)C(=O)N[C@@H](CCC(N)=O)C(=O)N[C@@H](Cc1ccc(O)cc1)C(=O)N[C@@H](CCC(=O)O)C(=O)N1CCC[C@H]1C(=O)N[C@@H](Cc1ccccc1)C(=O)O)C(C)C)C(C)C [copper-64 labelled] | – | – | C57BL/6 mice, male, tumour-free, small intestine | 24 h | – | tissue uptake | 6.15 ± 0.8 %ID/g
C[C@H](NCc1ccc(-c2ccc(C(F)(F)F)cc2)cc1)C(N)=O | – | general toxicity | Sprague-Dawley rat | oral, single dose | – | NOAEL | > 1000 mg/kg
CC(C)C[C@H](NC(=O)[C@H](Cc1ccc(O)cc1)NC(=O)[C@H](C)NC(=O)[C@H](CC(N)=O)NC(=O)[C@H](CC(C)C)NC(=O)[C@H](C)NC(=O)[C@@H](NC(=O)[C@H](CCCCN)NC(=O)CNC(=O)[C@@H](NC(=O)[C@H](CC(N)=O)NC(=O)[C@H](CCCCN)NC(=O)CNC(=O)[C@@H](NC(=O)[C@H](Cc1c[nH]cn1)NC(=O)[C@H](C)NC(=O)[C@H](C)NC(=O)[C@H](CCCCN)NC(=O)[C@H](CCCCN)NC(=O)[C@H](Cc1ccccc1)NC(=O)[C@H](Cc1c[nH]c2ccccc12)NC(=O)[C@H](CCCCN)NC(=O)[C@H](CCCCN)NC(=O)[C@H](CS)NC(=O)CN)C(C)C)C(C)C)C(C)C)C(N)=O | – | – | zebrafish embryos 4 hpf, E3 medium | 1 h | – | acute toxic concentration | 5 µM
Cc1ccc(OCCN(C)C)cc1C(=O)N[C@H](C)c1cc(-c2ccn(C)n2)nc2ccccc12 | Vero E6 | – | – | 7.812 µM | – | viability | 87.6% and 84.9% and 86.7%
CC(C)[C@H](NC(=O)[C@@H](NC(=O)[C@H](CCCNC(=N)N)NC(=O)[C@H](CCCNC(=N)N)NC(=O)[C@H](CCCNC(=N)N)NC(=O)[C@H](CCC(N)=O)NC(=O)[C@H](CCCNC(=N)N)NC(=O)[C@H](CCCNC(=N)N)NC(=O)[C@H](CCCCN)NC(=O)[C@H](CCCCN)NC(=O)[C@H](CCCNC(=N)N)NC(=O)CN)[C@@H](C)O)C(=O)N[C@H](C(=O)N[C@@H](CO)C(=O)N1CCC[C@H]1C(=O)O)[C@@H](C)O | – | – | ICR mouse, male, left kidney | intranasal, 20 mg/kg daily, 4 weeks | – | kidney weight | 0.294 ± 0.016 g
O=C1NC2(CC2)COc2ncc(F)cc2[C@H]2COCCN2c2ccn3ncc1c3n2 | – | – | Sprague-Dawley rat, female, brain | oral, 5 mg/kg/day, 4 weeks | – | organ weight | 1.93 ± 0.125 g
CC(C)=CCC/C(C)=C\CCn1cc(CC(C)(P(=O)(O)O)P(=O)(O)O)nn1 | – | – | mouse CD-1, bile | intravenous, 0.3 mg/kg, 8 h | – | concentration | 6570 ± 2590 ng/mL
COc1cnc2cccc(N3CCc4c(cc(Cn5ccnc5)cc4-c4cn(C)nc4C(F)(F)F)C3=O)c2c1 | – | – | CD-1 mice | intraperitoneal, 150 mg/kg once daily, day 3 | – | body weight | 29.7 ± 2 g
CCCC[C@H]1C(=O)N(C)[C@@H](CCCC)C(=O)N[C@@H](CCCNC(=O)CN2CCN(CC(=O)O)CCN(CC(=O)O)CCN(CC(=O)O)CC2)C(=O)N[C@H](C(=O)NCC(N)=O)CSCC(=O)N[C@@H](Cc2ccc(O)cc2)C(=O)N(C)[C@@H](C)C(=O)N[C@@H](CC(N)=O)C(=O)N2CCC[C@H]2C(=O)N[C@@H](Cc2c[nH]cn2)C(=O)N[C@@H](CC(C)C)C(=O)N(C)CC(=O)N[C@@H](Cc2c[nH]c3ccccc23)C(=O)N[C@@H](CO)C(=O)N[C@@H](Cc2c[nH]c3ccccc23)C(=O)N1C [gallium-68 labelled] | – | – | NOD/SCID mice, CHO-hPD-L1 xenograft, tumour over muscle | iv, dose not given, 30 min | relative to: tumour over muscle | tissue-to-tissue ratio | 8.61 ± 1.26
Cc1ccc(OC[C@H]2CCCN2C)cc1C(=O)N[C@H](C)c1cc(-c2cnn(C)c2)nc2ccccc12 | African green monkey cells | – | – | 31.25 µM | – | viability | 37.9%
N#[11C]c1ccc(-c2csc(NN=C3CCCC3)n2)cc1 | – | – | C57BL/6 mice, male, bladder | intravenous, 3 MBq, 60 min | – | radioactivity uptake | 3.84 ± 0.6 %ID/g
CSCC[C@H](N)C(=O)N[C@@H](C)C(=O)N[C@@H](CCCNC(=N)N)C(=O)N[C@@H](CCCNC(=N)N)C(=O)N[C@@H](CC(=O)O)C(=O)N[C@@H](CCCCN)C(=O)N[C@H](C(=O)N[C@@H](CC(=O)O)C(=O)N[C@@H](Cc1ccccc1)C(=O)N[C@@H](C)C(=O)N[C@@H](CCCNC(=N)N)C(=O)N[C@@H](CCCNC(=N)N)C(=O)N[C@@H](CCCNC(=N)N)C(=O)N[C@@H](CCCNC(=N)N)C(=O)NCCCCCC(=O)NCCCCC(NC(=O)CCCCCNC(=O)[C@H](CCCNC(=N)N)NC(=O)[C@H](CCCNC(=N)N)NC(=O)[C@H](CCCNC(=N)N)NC(=O)[C@H](CCCNC(=N)N)NC(=O)[C@H](C)NC(=O)[C@H](Cc1ccccc1)NC(=O)[C@H](CC(=O)O)NC(=O)[C@@H](NC(=O)[C@H](CCCCN)NC(=O)[C@H](CC(=O)O)NC(=O)[C@H](CCCNC(=N)N)NC(=O)[C@H](CCCNC(=N)N)NC(=O)[C@H](C)NC(=O)[C@@H](N)CCSC)[C@@H](C)O)C(=O)NCCCCC(NC(=O)C(CCCCNC(=O)CCCCCNC(=O)[C@H](CCCNC(=N)N)NC(=O)[C@H](CCCNC(=N)N)NC(=O)[C@H](CCCNC(=N)N)NC(=O)[C@H](CCCNC(=N)N)NC(=O)[C@H](C)NC(=O)[C@H](Cc1ccccc1)NC(=O)[C@H](CC(=O)O)NC(=O)[C@@H](NC(=O)[C@H](CCCCN)NC(=O)[C@H](CC(=O)O)NC(=O)[C@H](CCCNC(=N)N)NC(=O)[C@H](CCCNC(=N)N)NC(=O)[C@H](C)NC(=O)[C@@H](N)CCSC)[C@@H](C)O)NC(=O)CCCCCNC(=O)[C@H](CCCNC(=N)N)NC(=O)[C@H](CCCNC(=N)N)NC(=O)[C@H](CCCNC(=N)N)NC(=O)[C@H](CCCNC(=N)N)NC(=O)[C@H](C)NC(=O)[C@H](Cc1ccccc1)NC(=O)[C@H](CC(=O)O)NC(=O)[C@@H](NC(=O)[C@H](CCCCN)NC(=O)[C@H](CC(=O)O)NC(=O)[C@H](CCCNC(=N)N)NC(=O)[C@H](CCCNC(=N)N)NC(=O)[C@H](C)NC(=O)[C@@H](N)CCSC)[C@@H](C)O)C(N)=O)[C@@H](C)O (stereo partly shown) | – | – | C57BL/6 mouse female, brain | dose not given, 6 h | relative to: total | mean tissue distribution | 0.28%
CC(C)C[C@H](NC(=O)[C@H](CCCCN)NC(=O)[C@H](CCC(N)=O)NC(=O)[C@H](Cc1c[nH]cn1)NC(=O)C[C@@H]1NC(=O)[C@H](CCCCN)NC1=O)C(=O)N[C@H](C(=O)NCCCC[C@@H]1NC(=O)[C@H](CC(=O)N[C@@H](Cc2ccccc2)C(=O)N[C@@H](Cc2ccccc2)C(=O)N[C@@H](C)C(=O)N[C@@H](CCC(=O)O)C(=O)N[C@@H](CC(=O)O)C(=O)NCCCC[C@@H]2NC(=O)[C@H](CC(N)=O)NC2=O)NC1=O)C(C)C | – | HPLC | tris-HCl buffer | 24 h, pH 8, 37 °C, 10 mM tris-HCl, added: trypsin 5 µM | – | stability to trypsin | stable

For quick reference, copied from above:
Compound | tested on | assay | system | setting | how to read | measurement | result
Cc1ccc(OC[C@H]2CCCN2C)cc1C(=O)N[C@H](C)c1cc(-c2cnn(C)c2)nc2ccccc12 | African green monkey cells | – | – | 31.25 µM | – | viability | 37.9%
CC(C)[C@H](NC(=O)[C@@H](NC(=O)[C@H](CCCNC(=N)N)NC(=O)[C@H](CCCNC(=N)N)NC(=O)[C@H](CCCNC(=N)N)NC(=O)[C@H](CCC(N)=O)NC(=O)[C@H](CCCNC(=N)N)NC(=O)[C@H](CCCNC(=N)N)NC(=O)[C@H](CCCCN)NC(=O)[C@H](CCCCN)NC(=O)[C@H](CCCNC(=N)N)NC(=O)CN)[C@@H](C)O)C(=O)N[C@H](C(=O)N[C@@H](CO)C(=O)N1CCC[C@H]1C(=O)O)[C@@H](C)O | – | – | ICR mouse, male, left kidney | intranasal, 20 mg/kg daily, 4 weeks | – | kidney weight | 0.294 ± 0.016 g
